Published values pooled from the literature.
Compare with care: the assays were run in different laboratories. Numbers after ± are the reported error.
UniProt Q8NB78, sequence (whole entry, looked up): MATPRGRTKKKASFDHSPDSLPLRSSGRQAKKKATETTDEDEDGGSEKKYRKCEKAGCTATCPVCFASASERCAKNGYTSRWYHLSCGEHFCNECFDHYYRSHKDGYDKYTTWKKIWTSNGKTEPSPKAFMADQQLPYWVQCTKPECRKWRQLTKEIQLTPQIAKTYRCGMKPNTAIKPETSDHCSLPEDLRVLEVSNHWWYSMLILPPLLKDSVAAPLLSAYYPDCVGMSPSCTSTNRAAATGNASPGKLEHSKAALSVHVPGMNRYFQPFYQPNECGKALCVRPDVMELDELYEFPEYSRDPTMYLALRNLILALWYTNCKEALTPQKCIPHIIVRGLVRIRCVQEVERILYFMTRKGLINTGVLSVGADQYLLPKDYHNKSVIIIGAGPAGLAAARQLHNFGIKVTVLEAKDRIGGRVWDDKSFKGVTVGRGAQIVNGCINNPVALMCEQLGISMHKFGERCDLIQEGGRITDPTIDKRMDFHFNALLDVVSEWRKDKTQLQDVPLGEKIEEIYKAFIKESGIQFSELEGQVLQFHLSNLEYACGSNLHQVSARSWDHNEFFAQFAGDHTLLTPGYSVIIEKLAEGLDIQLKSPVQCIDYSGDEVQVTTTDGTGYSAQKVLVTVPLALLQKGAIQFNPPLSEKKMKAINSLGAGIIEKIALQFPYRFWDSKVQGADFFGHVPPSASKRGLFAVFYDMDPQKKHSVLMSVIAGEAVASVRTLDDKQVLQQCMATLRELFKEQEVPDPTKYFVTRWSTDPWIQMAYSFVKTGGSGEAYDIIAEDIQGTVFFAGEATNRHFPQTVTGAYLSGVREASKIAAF

Compound	target or system	test	test system	conditions	scale	quantity	result
O=c1c(OCc2ccccc2)c(-c2cccc([N+](=O)[O-])c2)oc2ccccc12	–	–	diabetic rat	5 mg/kg, day 1, p-nitrophenyl β-glucoside induced	–	blood glucose	393 ± 4.71 mg/dL
COc1ccc(CCCN[C@H]2CCC[C@@H]2CN[C@@H]2CCC[C@H]2CNCCCCN[C@@H]2CCC[C@H]2CN)cc1	KDM1B (Homo sapiens, UniProt Q8NB78)	enzyme activity, inhibitor	–	–	–	Ki	9.5 µM
CSCC[C@H](NC(=O)[C@H](CO)NC(=O)[C@@H](N)CO)C(=O)N[C@@H](CCCCN)C(=O)N[C@@H](CC(C)C)C(=O)N[C@@H](CO)C(=O)N[C@@H](Cc1ccccc1)C(=O)N[C@@H](CCCNC(=N)N)C(=O)N[C@@H](C)C(=O)N[C@@H](CCCNC(=N)N)C(=O)N[C@@H](C)C(=O)N[C@@H](Cc1ccc(O)cc1)C(=O)NCC(=O)N[C@@H](Cc1ccccc1)C(=O)N[C@@H](CCCNC(=N)N)C(=O)NCC(=O)N1CCC[C@H]1C(=O)NCC(=O)N1CCC[C@H]1C(=O)N[C@@H](CCC(N)=O)C(=O)N[C@@H](CC(C)C)C(=O)O	–	–	fed NCD wild-type mouse, plasma	dose not given, chronic treatment	–	plasma glucagon level	no effect
CC[C@H]1[C@@H](O)[C@@H]2[C@H](CC[C@]3(C)[C@@H]([C@H](C)CCOS(=O)(=O)[O-])CC[C@@H]23)[C@@]2(C)CC[C@@H](O)C[C@@H]12.[Na+]	–	histology	ob/ob NASH mouse model, liver	oral, 10 mg/kg once daily, before treatment, baseline of 8 week study, scale 0 to 3	direction not given	steatosis score	2.9 ± 0.1
COc1cc(CNC(=O)C[C@H](C)CCC=C(C)C)ccc1OCc1cn(-c2ccc(Cl)c(Cl)c2)nn1	RXF 393	SRB	–	10 µM, 48 h	–	growth percent	74.8%
Cc1cc(O)cc(O)c1C(=O)c1c2c3c(c(O)cc(C)c3oc1=O)C(=O)c1c(O)cc(O)cc1-2	–	–	Bel-7402 xenograft, mouse	intraperitoneal, 28 mg/kg, day 21	–	T/C	48.8%
CCCCCCCCC=CCCCCCCCC(=O)OCC1OC(n2ccc(N)nc2=O)C(F)(F)C1O (centres unmarked)	–	–	female nude mouse, colon xenograft, patient-derived colon tumour	oral, 50 mg/kg, dosed days 1 and 8	baseline: saline control	optimal tumour volume T/C	22%
CC(C)(CCCC/C=C/CCCCCC(C)(C)C(=O)O)C(=O)O	–	–	ApoE-/- mouse, Western diet	oral, dose not given, 24 weeks, once daily	baseline: vehicle	hepatic cholesterol reduction	50%
Cc1ccc(-c2nc3cc(F)ccc3[nH]2)o1	–	ABTS scavenging, absorbance	–	–	–	IC50	1.37 µM
CN(C)c1ccc(-c2oc3ccccc3c(=O)c2OCc2ccccc2)cc1	–	–	diabetic rat	7.5 mg/kg, day 7, p-nitrophenyl β-glucoside induced	–	blood glucose	325 ± 4.89 mg/dL
CCCCCCCCCn1cc(C(N)(CO)CO)nn1	–	refers to: Il-4, Tgf-β, Arg1	APP/PS1 mouse	dose not given	baseline: PBS	anti-inflammatory mRNA levels	increased
CC(C)C[C@H](NC(=O)[C@H](CO)NC(=O)[C@H](CCCNC(=N)N)NC(=O)[C@H](CC(=O)O)NC(=O)[C@H](CCC(=O)O)NC(=O)[C@H](C)NC(=O)[C@@H]1CCCN1C(=O)[C@H](C)NC(=O)[C@H](CCC(=O)O)NC(=O)[C@@H]1CCCN1C(=O)[C@@H]1CCCN1)C(N)=O	dopamine system	–	rhesus monkey, contralateral globus pallidus	intranasal, dose not given, repeated dose escalation	baseline: vehicle	DOPAC/DA ratio reduction	56%
Cc1ccc(-c2oc3ccccc3c(=O)c2OCc2ccccc2)cc1	–	–	diabetic rat	7.5 mg/kg, day 7, p-nitrophenyl β-glucoside induced	–	blood glucose	330 ± 3.96 mg/dL
CSCC[C@@H]1NC(=O)[C@H](CCCCN)NC(=O)[C@H]([C@@H](C)O)NC(=O)[C@H](CCCCN)NC(=O)[C@H](CC(C)C)NC(=O)[C@H](CCCCN)NC(=O)[C@H](CCCNC(=N)N)NC(=O)[C@@H]2CSSC[C@@H]3NC(=O)[C@@H]4CCCN4C(=O)[C@H](C(C)C)NC(=O)[C@H](CCC(N)=O)NC(=O)[C@H](CCC(N)=O)NC(=O)CNC(=O)[C@H](CC(C)C)NC(=O)[C@@H]4CSSC[C@H](NC(=O)[C@H]([C@@H](C)O)NC(=O)[C@H](C)NC(=O)[C@H](CSSC[C@@H](C(=O)N[C@@H](CO)C(=O)N[C@@H](CCCNC(=N)N)C(=O)N[C@H](C(N)=O)[C@@H](C)O)NC(=O)[C@@H]5CCCN5C(=O)[C@H](CC(N)=O)NC1=O)NC(=O)[C@@H]1CCCN1C(=O)[C@H](CC(=O)O)NC(=O)[C@H](CSSC[C@H](NC(=O)[C@H](CCCNC(=N)N)NC(=O)[C@H](CCCNC(=N)N)NC(=O)[C@H](CCCCN)NC(=O)[C@@H](N)CCCCN)C(=O)N[C@@H](C(C)C)C(=O)N[C@@H](CCCNC(=N)N)C(=O)N[C@@H](CC(C)C)C(=O)N[C@@H](Cc1c[nH]cn1)C(=O)N[C@@H](CCC(=O)O)C(=O)N[C@@H](CO)C(=O)N4)NC3=O)C(=O)N[C@@H](Cc1ccc(O)cc1)C(=O)N[C@H]1CSSC[C@H](NC(=O)[C@H](Cc3ccccc3)NC(=O)[C@H](C)NC(=O)[C@H](CC(N)=O)NC(=O)[C@H](Cc3ccccc3)NC(=O)[C@H](Cc3ccccc3)NC(=O)[C@H](CCCNC(=N)N)NC1=O)C(=O)N[C@@H](Cc1ccc(O)cc1)C(=O)N2	–	–	Long-Evans rat, male	intracerebroventricular, 1.0 nmol, day 3, non-cumulative	baseline: saline	food intake	92.3 ± 8.3 % above saline
O=c1c(OCc2ccccc2)c(-c2ccc([N+](=O)[O-])cc2)oc2ccccc12	–	–	diabetic rat	7.5 mg/kg, day 14, p-nitrophenyl β-glucoside induced	–	blood glucose	288 ± 5.38 mg/dL
COc1cc(CNC(=O)C[C@H](C)CCC=C(C)C)ccc1OCc1cn(-c2ccccc2[N+](=O)[O-])nn1	Hs-578T breast cancer cells	SRB	–	10 µM, 48 h	–	growth percent	73.7%
CC(=O)N/C(N)=N/C(=N\S(=O)(=O)c1ccc(C(F)(F)F)cc1)N1C[C@H](c2ccccc2)C(c2ccc(Cl)cc2)=N1	–	–	β-arrestin 2 knockout mouse, diet-induced obese	3 mg/kg/day, 7 days	–	hyperinsulinaemia	no effect
COc1ccc(C2CC(c3ccc(C)cc3)=Nc3ccccc3S2)cc1OC (centres unmarked)	–	–	Wistar rat, STZ-induced diabetes, serum	10 mg/kg, 28 days	–	alkaline phosphatase	206 IU/L
C=C(c1ncc(C(=O)O)cn1)c1cc2c(cc1C)C(C)(C)CCC2(C)C	–	RNA sequencing, refers to: Nmb	rat, brain	dose not given, 24 h	baseline: vehicle	log2 fold change	-0.38
[64Cu+2].c1cnc(CNCc2ccc(CN3CCCN4CCNCCCN(CC4)CC3)cc2)nc1	CXCR4 (human)	–	NOD/SCID mice, U87 xenografts, U87 control tumour	90 min post-injection	–	tissue uptake	6.12 ± 0.97 %ID/g

A few entries again:
Compound	target or system	test	test system	conditions	scale	quantity	result
CC(C)C[C@H](NC(=O)[C@H](CO)NC(=O)[C@H](CCCNC(=N)N)NC(=O)[C@H](CC(=O)O)NC(=O)[C@H](CCC(=O)O)NC(=O)[C@H](C)NC(=O)[C@@H]1CCCN1C(=O)[C@H](C)NC(=O)[C@H](CCC(=O)O)NC(=O)[C@@H]1CCCN1C(=O)[C@@H]1CCCN1)C(N)=O	dopamine system	–	rhesus monkey, contralateral globus pallidus	intranasal, dose not given, repeated dose escalation	baseline: vehicle	DOPAC/DA ratio reduction	56%
